Published values from different studies.
Numbered parts are unrelated; each lists some results of a single study.
Sequence of UniProt P51955 (whole entry, looked up): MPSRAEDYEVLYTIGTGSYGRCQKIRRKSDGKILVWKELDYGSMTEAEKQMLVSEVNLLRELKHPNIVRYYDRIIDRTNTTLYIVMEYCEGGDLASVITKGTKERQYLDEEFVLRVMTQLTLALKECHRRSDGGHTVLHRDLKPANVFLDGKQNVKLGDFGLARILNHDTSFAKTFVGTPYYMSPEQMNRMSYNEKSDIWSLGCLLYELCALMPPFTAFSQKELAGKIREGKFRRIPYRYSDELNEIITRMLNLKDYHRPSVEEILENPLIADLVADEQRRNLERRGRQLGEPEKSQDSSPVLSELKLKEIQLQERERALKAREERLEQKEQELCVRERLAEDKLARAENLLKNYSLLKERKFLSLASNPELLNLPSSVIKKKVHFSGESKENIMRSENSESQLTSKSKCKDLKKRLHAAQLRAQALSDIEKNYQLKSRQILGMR
Sequence of UniProt Q15831 (whole entry, looked up): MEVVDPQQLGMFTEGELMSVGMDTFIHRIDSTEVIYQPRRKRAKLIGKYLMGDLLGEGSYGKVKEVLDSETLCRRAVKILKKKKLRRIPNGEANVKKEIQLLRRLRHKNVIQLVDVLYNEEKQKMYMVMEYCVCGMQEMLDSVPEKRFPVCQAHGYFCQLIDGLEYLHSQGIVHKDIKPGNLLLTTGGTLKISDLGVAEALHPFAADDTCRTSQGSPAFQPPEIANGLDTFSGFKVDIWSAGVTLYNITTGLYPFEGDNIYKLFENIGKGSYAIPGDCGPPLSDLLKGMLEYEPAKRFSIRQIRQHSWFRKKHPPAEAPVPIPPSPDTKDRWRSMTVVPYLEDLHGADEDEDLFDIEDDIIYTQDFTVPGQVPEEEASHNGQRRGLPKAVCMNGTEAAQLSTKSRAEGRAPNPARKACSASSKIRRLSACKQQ
Sequence of UniProt O96017 (whole entry, looked up): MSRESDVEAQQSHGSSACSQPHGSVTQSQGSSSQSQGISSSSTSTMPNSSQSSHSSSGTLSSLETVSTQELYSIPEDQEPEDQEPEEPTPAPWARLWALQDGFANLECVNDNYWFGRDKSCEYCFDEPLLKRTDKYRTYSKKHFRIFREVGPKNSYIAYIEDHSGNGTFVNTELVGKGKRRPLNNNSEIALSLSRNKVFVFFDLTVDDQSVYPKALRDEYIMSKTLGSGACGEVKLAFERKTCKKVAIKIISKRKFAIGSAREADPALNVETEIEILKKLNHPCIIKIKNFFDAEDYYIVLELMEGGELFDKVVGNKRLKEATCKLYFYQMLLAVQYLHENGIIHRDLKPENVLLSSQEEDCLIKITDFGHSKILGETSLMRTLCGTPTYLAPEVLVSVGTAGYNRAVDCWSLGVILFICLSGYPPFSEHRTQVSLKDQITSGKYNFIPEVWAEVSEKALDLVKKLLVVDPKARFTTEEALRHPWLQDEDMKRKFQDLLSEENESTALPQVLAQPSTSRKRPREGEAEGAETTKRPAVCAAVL
Sequence of UniProt Q14164 (whole entry, looked up): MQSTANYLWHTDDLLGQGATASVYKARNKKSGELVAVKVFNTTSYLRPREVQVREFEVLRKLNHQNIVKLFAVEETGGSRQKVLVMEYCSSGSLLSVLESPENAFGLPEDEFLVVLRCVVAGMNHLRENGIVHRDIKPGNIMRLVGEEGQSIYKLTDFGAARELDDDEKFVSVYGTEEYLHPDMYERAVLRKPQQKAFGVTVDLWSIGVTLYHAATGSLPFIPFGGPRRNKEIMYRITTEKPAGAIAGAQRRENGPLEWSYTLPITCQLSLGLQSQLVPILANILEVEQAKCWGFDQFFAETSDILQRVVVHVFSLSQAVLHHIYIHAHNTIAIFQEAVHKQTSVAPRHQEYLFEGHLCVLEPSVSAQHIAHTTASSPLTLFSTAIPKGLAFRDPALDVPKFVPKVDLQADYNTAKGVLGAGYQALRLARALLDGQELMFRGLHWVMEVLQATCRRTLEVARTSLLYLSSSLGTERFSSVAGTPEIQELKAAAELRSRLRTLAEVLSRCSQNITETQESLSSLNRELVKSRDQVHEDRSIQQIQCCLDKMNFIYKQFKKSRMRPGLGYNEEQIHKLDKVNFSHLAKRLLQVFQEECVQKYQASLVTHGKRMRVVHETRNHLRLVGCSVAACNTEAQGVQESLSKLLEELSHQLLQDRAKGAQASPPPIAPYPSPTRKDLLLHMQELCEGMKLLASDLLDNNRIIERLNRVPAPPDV
Sequence of UniProt Q16288 (whole entry, looked up): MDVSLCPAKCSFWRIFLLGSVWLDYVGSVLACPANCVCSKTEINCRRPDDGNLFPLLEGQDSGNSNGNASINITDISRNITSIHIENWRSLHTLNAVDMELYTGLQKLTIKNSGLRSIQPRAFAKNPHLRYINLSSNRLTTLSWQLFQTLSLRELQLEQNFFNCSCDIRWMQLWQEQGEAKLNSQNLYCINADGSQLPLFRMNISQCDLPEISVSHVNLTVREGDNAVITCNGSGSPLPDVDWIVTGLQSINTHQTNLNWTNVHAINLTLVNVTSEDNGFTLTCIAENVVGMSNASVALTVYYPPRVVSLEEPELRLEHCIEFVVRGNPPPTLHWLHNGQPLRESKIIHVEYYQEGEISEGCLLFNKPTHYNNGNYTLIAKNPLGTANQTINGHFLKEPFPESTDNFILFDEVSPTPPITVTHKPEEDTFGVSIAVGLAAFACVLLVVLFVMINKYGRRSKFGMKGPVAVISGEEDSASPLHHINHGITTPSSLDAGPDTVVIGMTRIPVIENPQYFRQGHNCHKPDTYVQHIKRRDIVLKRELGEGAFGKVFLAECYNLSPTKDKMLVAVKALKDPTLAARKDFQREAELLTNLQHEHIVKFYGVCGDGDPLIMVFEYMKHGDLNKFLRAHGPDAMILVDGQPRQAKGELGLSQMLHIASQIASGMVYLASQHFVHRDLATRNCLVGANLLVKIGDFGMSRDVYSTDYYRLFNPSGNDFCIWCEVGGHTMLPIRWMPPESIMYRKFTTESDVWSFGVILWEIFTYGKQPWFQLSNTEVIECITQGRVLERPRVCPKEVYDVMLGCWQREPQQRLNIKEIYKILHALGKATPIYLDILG
Sequence of UniProt O95382 (whole entry, looked up): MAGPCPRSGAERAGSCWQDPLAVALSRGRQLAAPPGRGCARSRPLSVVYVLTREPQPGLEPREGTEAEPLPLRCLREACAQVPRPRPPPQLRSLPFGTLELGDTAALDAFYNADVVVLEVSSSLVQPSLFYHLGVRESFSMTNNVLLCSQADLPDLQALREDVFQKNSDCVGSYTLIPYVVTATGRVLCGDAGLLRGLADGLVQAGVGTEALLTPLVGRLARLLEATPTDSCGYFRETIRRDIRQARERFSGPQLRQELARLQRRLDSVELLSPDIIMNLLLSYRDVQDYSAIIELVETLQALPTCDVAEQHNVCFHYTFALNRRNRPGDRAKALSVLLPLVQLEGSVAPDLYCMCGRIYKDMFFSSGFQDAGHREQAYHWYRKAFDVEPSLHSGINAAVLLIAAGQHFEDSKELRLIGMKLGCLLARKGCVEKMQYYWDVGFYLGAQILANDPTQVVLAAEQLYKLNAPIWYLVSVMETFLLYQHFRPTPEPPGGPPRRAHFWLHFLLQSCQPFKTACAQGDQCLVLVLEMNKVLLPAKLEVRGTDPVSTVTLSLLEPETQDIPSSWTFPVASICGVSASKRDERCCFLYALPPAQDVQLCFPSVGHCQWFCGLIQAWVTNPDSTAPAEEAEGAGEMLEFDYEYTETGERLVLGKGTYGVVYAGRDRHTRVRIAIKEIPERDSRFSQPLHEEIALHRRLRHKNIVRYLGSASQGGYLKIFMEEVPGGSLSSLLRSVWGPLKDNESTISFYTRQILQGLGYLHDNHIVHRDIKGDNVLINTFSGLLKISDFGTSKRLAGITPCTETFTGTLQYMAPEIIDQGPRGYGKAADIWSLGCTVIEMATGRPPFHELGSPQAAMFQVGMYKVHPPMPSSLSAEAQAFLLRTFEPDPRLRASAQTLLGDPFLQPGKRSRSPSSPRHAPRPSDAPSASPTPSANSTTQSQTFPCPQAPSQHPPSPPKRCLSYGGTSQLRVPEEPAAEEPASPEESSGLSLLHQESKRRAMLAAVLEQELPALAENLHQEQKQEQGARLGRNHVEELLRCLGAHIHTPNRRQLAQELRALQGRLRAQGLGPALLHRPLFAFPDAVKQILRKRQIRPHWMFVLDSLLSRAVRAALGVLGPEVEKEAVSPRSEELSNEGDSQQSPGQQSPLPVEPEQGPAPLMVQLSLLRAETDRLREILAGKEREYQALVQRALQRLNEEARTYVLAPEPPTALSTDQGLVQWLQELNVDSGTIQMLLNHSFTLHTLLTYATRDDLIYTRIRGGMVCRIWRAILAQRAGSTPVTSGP
Sequence of UniProt P51451 (whole entry, looked up): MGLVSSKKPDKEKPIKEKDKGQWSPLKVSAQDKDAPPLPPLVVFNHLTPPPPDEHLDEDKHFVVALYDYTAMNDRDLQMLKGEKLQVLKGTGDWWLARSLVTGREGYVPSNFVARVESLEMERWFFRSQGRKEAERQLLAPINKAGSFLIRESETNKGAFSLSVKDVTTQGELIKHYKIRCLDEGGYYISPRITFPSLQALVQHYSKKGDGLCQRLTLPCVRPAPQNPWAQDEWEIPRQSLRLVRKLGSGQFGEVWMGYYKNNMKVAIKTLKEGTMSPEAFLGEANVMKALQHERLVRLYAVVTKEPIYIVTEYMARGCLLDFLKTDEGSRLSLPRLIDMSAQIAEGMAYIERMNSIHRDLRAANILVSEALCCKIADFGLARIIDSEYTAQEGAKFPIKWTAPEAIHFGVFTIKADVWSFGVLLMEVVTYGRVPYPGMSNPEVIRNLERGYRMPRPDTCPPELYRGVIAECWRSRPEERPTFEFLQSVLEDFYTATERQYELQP

Study 1
SMILES: Cc1ccc(NC(=O)c2ccnc(C(F)(F)F)c2)cc1-c1cc(OCCO)nc(N2CCOCC2)c1
Observed: binding
Tested at: 1 µM
| target | method | remaining binding [%] |
| --- | --- | --- |
| CHEK2 (Homo sapiens, UniProt O96017) |  | 100 |
| EIF2AK4 (Homo sapiens, UniProt Q9P2K8, S808G) |  | 100 |
| NEK2 (Homo sapiens, UniProt P51955) | competition with immobilised ligand | 97 |
| KIT (Homo sapiens, UniProt P10721, V559D) |  | 92 |
| FYN (Homo sapiens, UniProt P06241) | competition with immobilised ligand | 100 |
| Ribosomal protein S6 kinase alpha-1, N-terminal kinase domain (RPS6KA1, Homo sapiens, UniProt Q15418) | competition with immobilised ligand | 85 |
| NTRK3 (Homo sapiens, UniProt Q16288) | competition with immobilised ligand | 98 |
| MAP3K6 (Homo sapiens, UniProt O95382) |  | 87 |
| Tyrosine-protein kinase ABL1, non-phosphorylated (ABL1, Homo sapiens, UniProt P00519) | competition with immobilised ligand | 58 |
| EGFR (Homo sapiens, UniProt P00533, del752-759) |  | 88 |

Study 2
Structure (SMILES): CC(=O)Nc1c(C(C)=O)c(=O)n(C)c2nc(-c3ccc(Cl)cc3Cl)c(-c3ccc(Cl)cc3)cc12
Method: competition with immobilised ligand
Tested at: 1 µM
| target | observed | remaining binding |
| --- | --- | --- |
| FLT3 (Homo sapiens, UniProt P36888, K663Q) | cell-free assay | 100% |
| Tyrosine-protein kinase JAK3, JH1 (JAK3, Homo sapiens, UniProt P52333) | cell-free assay | 100% |
| PRKG2 (Homo sapiens, UniProt Q13237) | cell-free assay | 100% |
| Tyrosine-protein kinase ABL1, phosphorylated (ABL1, Homo sapiens, UniProt P00519) | cell-free assay | 81% |
| Tyrosine-protein kinase ABL1, phosphorylated (ABL1, Homo sapiens, UniProt P00519, Y253F) | cell-free assay | 96% |
| CILK1 (Homo sapiens, UniProt Q9UPZ9) | cell-free assay | 100% |
| FLT3 (Homo sapiens, UniProt P36888, D835Y) | cell-free assay | 100% |
| STK11 (Homo sapiens, UniProt Q15831) | binding | 43% |
| LTK (Homo sapiens, UniProt P29376) | cell-free assay | 100% |
| CSNK1E (Homo sapiens, UniProt P49674) | cell-free assay | 100% |
| BLK (Homo sapiens, UniProt P51451) | cell-free assay | 100% |
| SGK2 (Homo sapiens, UniProt Q9HBY8) | cell-free assay | 100% |
| FLT3 (Homo sapiens, UniProt P36888, ITD) | cell-free assay | 100% |
| INSRR (Homo sapiens, UniProt P14616) | cell-free assay | 100% |
| CAMK1 (Homo sapiens, UniProt Q14012) | cell-free assay | 100% |
| NEK6 (Homo sapiens, UniProt Q9HC98) | cell-free assay | 100% |
| IKBKE (Homo sapiens, UniProt Q14164) | cell-free assay | 80% |

Study 3
Host: mouse
Medium: microsomes or S9
Tested at: 2 µM
Time: 0.5 h
| Structure (SMILES) | remaining compound [%] |
| --- | --- |
| Cc1nc2nc(Cl)n(Cc3ccc(-c4cc(CC(C)C)sc4S(=O)(=O)NC(C)(C)C)cc3)c2cc1-c1ccccc1 | < 1 |
| COc1cc(OC)cc(C2CC(=O)c3cc(OC)cc(OC)c32)c1 (stereo not shown) | 53.6 |
| N#Cc1nccnc1OC1CCN(C(=O)c2ccc(N3CCOCC3)cc2)C1 (stereo not shown) | 73.9 |
| O=C1N[C@@H](Cc2c[nH]c3ccccc23)C(=O)N2CCC[C@@H]12 | 93.2 |
| c1ccc2c(c1)CC[C@H](Cn1ccnc1-c1cc3n(n1)CCCNC3)O2 | 23.6 |
| c1cc2ccn(-c3ccc4ccnc(N5CCOCC5)c4c3)c2cn1 | 1.48 |
| O=C(CCCOc1ccccc1)Nc1ccccc1-c1ccccc1 | < 1 |
| CC(C)(C)C1CCc2c(sc(NC(=O)Cc3ccccc3)c2C#N)C1 (stereo not shown) | 45.5 |
| COc1cc(C#N)cc(Br)c1OCCCn1ccnc1 | 53.1 |
| COc1ccc(C(=O)C2=CN(c3ccc(C#N)cc3)c3cc(F)ccc3S2(=O)=O)cc1 | 63.5 |
| Cc1cc(C)nc(Nc2n[nH]c(COc3ccccc3)n2)n1 | 3.95 |
| COc1cc(=O)[nH]cc1C(=O)N1CCN(c2cncc(F)c2)CC1 | 73.1 |
| O=C(O)CCc1nc2cc(-c3ccsc3)ccc2[nH]1 | 87.4 |
| Cn1cc(Br)c(C(=O)NCCCN2CCCC2=O)n1 | > 99 |
| Cc1nc(COc2ccc(C(=O)Nc3ccc(S(=O)(=O)/N=c4/o[nH]c(C)c4C)cc3)cc2)cs1 | 41.2 |
| Cc1nn(C)c2c1N(C(=O)OC(C)(C)C)CC(C)N2C(=O)c1cc(Cl)cc(Cl)c1 (stereo not shown) | 0.359 |
| Cc1cccc(NC(=O)c2oc3ccccc3c2NC(=O)c2cc(-c3ccc4c(c3)OCCO4)on2)c1 | 46.1 |
| CC(C)OCCCNC(=O)c1ccc(C(C)(C)C)cc1 | 0.457 |
| COc1ccc(Cc2nc3c4c(ncn3n2)OC(C)=C(C(C)=O)C4c2ccccc2)cc1OC (stereo not shown) | 5.98 |

Study 4
SMILES: CCOc1cc2ncnc(Nc3cccc(Br)c3)c2cc1OCC
Observed: enzyme activity
Action: inhibitor
Tested at: 0.5 µM
Reference: control
| target | remaining activity [%] |
| --- | --- |
| Cyclin-dependent kinase 5, with p25 (CDK5, Homo sapiens, UniProt Q00535) | 89.5 |
| Cyclin-dependent kinase 4, with cyclin D1 (CDK4, Homo sapiens, UniProt P11802) | 94.2 |
| Protein kinase C beta type, isoform beta-I (PRKCB, Homo sapiens, UniProt P05771) | 100 |
| cGMP-dependent protein kinase 1, isoform beta (PRKG1, Homo sapiens, UniProt Q13976) | 96 |
| TGFBR1 (Homo sapiens, UniProt P36897) | 96.9 |
| CAMKK2 (Homo sapiens, UniProt Q96RR4) | 101 |
| Tyrosine-protein kinase Lyn, isoform B (LYN, Homo sapiens, UniProt P07948) | 49.5 |
| GRK3 (Homo sapiens, UniProt P35626) | 93.8 |
| CAMK2D (Homo sapiens, UniProt Q13557) | 87 |
| STK10 (Homo sapiens, UniProt O94804) | 30.5 |
| TGFBR2 (Homo sapiens, UniProt P37173) | 83.4 |
| IKBKE (Homo sapiens, UniProt Q14164) | 98.7 |
| IKBKB (Homo sapiens, UniProt O14920) | 102 |
| DAPK2 (Homo sapiens, UniProt Q9UIK4) | 103 |
| PRKACA (Homo sapiens, UniProt P17612) | 98.9 |
| DAPK1 (Homo sapiens, UniProt P53355) | 77.4 |
| CHEK2 (Homo sapiens, UniProt O96017) | 92 |
| NEK2 (Homo sapiens, UniProt P51955) | 98.7 |
| PRKCA (Homo sapiens, UniProt P17252) | 85.3 |
| STK39 (Homo sapiens, UniProt Q9UEW8) | 110 |
| OXSR1 (Homo sapiens, UniProt O95747) | 102 |
| MAP3K3 (Homo sapiens, UniProt Q99759) | 92.9 |
| STK11 (Homo sapiens, UniProt Q15831) | 88 |
| MAPK9 (Homo sapiens, UniProt P45984) | 98.5 |
